Experimental data gathered from unrelated publications.
Lines come from different studies, so protocols differ. Several values in a cell are separate wells, animals, samples, runs or records. Values after ≈ are worked out from the molar mass of the structure shown.

Compound | tested on | test | system | setting | how to read | measurement | value
O=[N+]([O-])c1ccc2c(N=Nc3c(O)ccc4ccccc34)c(O)cc(S(=O)(=O)O)c2c1 | Staphylococcus epidermidis | – | LB medium | 50 µM, 50% growth delay | – | growth delay | 1.6 h
COc1cccc(OC)c1C(=O)N[C@@H]1C(=O)N2[C@@H]1SC(C)(C)[C@@H]2C(=O)O | Staphylococcus epidermidis | – | 1 | – | – | MIC | 12.5 µM (≈ 4.76 µg/mL)
CN[C@H](CC(C)C)C(=O)N[C@H]1C(=O)N[C@@H](CC(N)=O)C(=O)N[C@H]2C(=O)N[C@H]3C(=O)N[C@H](C(=O)N[C@H](C(=O)O)c4cc(O)cc(O)c4-c4cc3ccc4O)[C@H](O)c3ccc(c(Cl)c3)Oc3cc2cc(c3O[C@@H]2O[C@H](CO)[C@@H](O)[C@H](O)[C@H]2O[C@H]2C[C@](C)(N)[C@H](O)[C@H](C)O2)Oc2ccc(cc2Cl)[C@H]1O | Staphylococcus epidermidis | broth microdilution | methicillin-resistant clinical isolates | – | – | MIC range | 1 µg/mL (≈ 0.69 µM)
Oc1c(Br)cc(Br)c2nc3c(F)cccc3nc12 | Staphylococcus epidermidis | broth microdilution | methicillin-resistant 35984 | – | – | MIC | 0.78 µM (≈ 0.29 µg/mL)
CCC(=O)N1CCOc2c(cc(-c3ccc(OC)c(OC)c3)cc2OC[C@H]2CCCN(C)C2)C1 | OCI-Ly1 | – | – | 1 µM, 120 h | – | viability | 82.6%
C=C[C@]1(C)C[C@@H](OC(=O)CS[C@@H]2C[C@H]3CC[C@@H](C2)N3C)[C@]2(C)[C@H](C)CC[C@]3(CCC(=O)[C@H]32)[C@@H](C)[C@@H]1O | Staphylococcus epidermidis | – | – | – | – | MIC50 | 0.0625 µg/mL (≈ 0.121 µM)
CN(C)[C@@H]1C(O)=C(C(N)=O)C(=O)[C@@]2(O)C(O)=C3C(=O)c4c(O)cccc4[C@@](C)(O)[C@H]3C[C@@H]12 | Staphylococcus epidermidis | – | 1 | – | – | MIC | 25 µM (≈ 11.1 µg/mL)
CN[C@H](CC(C)C)C(=O)N[C@H]1C(=O)N[C@@H](CC(N)=O)C(=O)N[C@H]2C(=O)N[C@H]3C(=O)N[C@H](C(=O)N[C@H](C(=O)O)c4cc(O)cc(O)c4-c4cc3ccc4O)[C@H](O)c3ccc(c(Cl)c3)Oc3cc2cc(c3O[C@@H]2O[C@H](CO)[C@@H](O)[C@H](O)[C@H]2O[C@H]2C[C@](C)(N)[C@H](O)[C@H](C)O2)Oc2ccc(cc2Cl)[C@H]1O | Staphylococcus epidermidis | – | 9397, female ICR mice, peritonitis, heart | dose not given | – | bacterial load | 5.35 log CFU and 3.86 log CFU and 4.9 log CFU and 3.81 log CFU and 4.97 log CFU and 3.75 log CFU
OB(O)c1csc2ccccc12 | Staphylococcus epidermidis | – | – | 100 µM, 10 h | baseline: untreated | growth | 94.5% and 93.7% and 104% and 103% and 94.7%
c1ccc(CN(CCN(Cc2ccccn2)Cc2ccccn2)Cc2ccccn2)nc1 | Staphylococcus epidermidis | Calgary Biofilm Device | MRSE 35984, biofilm | 24 h | – | MBC | 250 µM (≈ 106 µg/mL)
COc1c(N2C[C@@H]3CCCN[C@@H]3C2)c(F)cc2c(=O)c(C(=O)O)cn(C3CC3)c12 | Staphylococcus epidermidis | broth microdilution | methicillin-resistant isolates | – | – | MIC90 | 2 µg/mL (≈ 4.98 µM)
COc1cc2c(NC3CCN(C)CC3)nc(N3CCCN(C)CC3)nc2cc1OCCCN(C)C | OCI-Ly1 | – | – | 0.1 µM, 120 h | – | viability | 195%
CC[C@H]1OC(=O)[C@H](C)[C@@H](O[C@H]2C[C@@](C)(OC)[C@@H](O)[C@H](C)O2)[C@H](C)[C@@H](O[C@@H]2O[C@H](C)C[C@H](N(C)C)[C@H]2O)[C@](C)(O)C[C@@H](C)C(=O)[C@H](C)[C@@H](O)[C@]1(C)O | Staphylococcus epidermidis | – | 1 | – | – | MIC | > 100 µM
CC[C@H]1OC(=O)[C@H](C)[C@@H](O[C@H]2C[C@@](C)(OC)[C@@H](O)[C@H](C)O2)[C@H](C)[C@@H](O[C@@H]2O[C@H](C)C[C@H](N(C)C)[C@H]2O)[C@](C)(O)C[C@@H](C)/C(=N\OCOCCOC)[C@H](C)[C@@H](O)[C@]1(C)O | Staphylococcus epidermidis | – | – | – | – | MIC50 | 16 µg/mL (≈ 19.1 µM)

Some of these lines once more:
Compound | tested on | test | system | setting | how to read | measurement | value
CC[C@H]1OC(=O)[C@H](C)[C@@H](O[C@H]2C[C@@](C)(OC)[C@@H](O)[C@H](C)O2)[C@H](C)[C@@H](O[C@@H]2O[C@H](C)C[C@H](N(C)C)[C@H]2O)[C@](C)(O)C[C@@H](C)C(=O)[C@H](C)[C@@H](O)[C@]1(C)O | Staphylococcus epidermidis | – | 1 | – | – | MIC | > 100 µM
